Published values collected from several papers.
Compare with care: the assays were run in different laboratories.
Organism: Candida albicans

`N=C(N)NCCC[C@H](NC(=O)[C@H](Cc1c[nH]c2ccccc12)NC(=O)[C@H](CCCNC(=N)N)NC(=O)[C@H](CCCNC(=N)N)NC(=O)[C@@H]1CCCN1C(=O)[C@H](CCCCN)NC(=O)[C@@H](N)CCCNC(=N)N)C(=O)N[C@@H](Cc1c[nH]c2ccccc12)C(=O)N[C@@H](Cc1c[nH]c2ccccc12)C(=O)N1CCC[C@H]1C(=O)N[C@@H](CCCCN)C(=O)N[C@@H](CCCNC(=N)N)C(=O)N1CCC[C@H]1C(=O)O` gave an inhibition of 1 fraction (0-1) (growth; ATCC 10231, potato dextrose broth; 128 µM, 30 °C).
For `CC(C)[C@H]1NC(=O)[C@H](Cc2ccccc2)NC(=O)[C@@H](C(C)C)NC(=O)[C@@H](C)NC(=O)[C@H](CO)NC(=O)[C@@H](Cc2c(-c3ccc(-c4ccc5ccccc5c4)cc3)[nH]c3ccccc23)NC(=O)[C@@H](CO)NC1=O`, the MIC90 was > 50 µM (broth dilution).
With `CC(C)C[C@H](NC(=O)CN)C(=O)N[C@@H](CCCCN)C(=O)N[C@@H](CCCCN)C(=O)N[C@@H](CS)C(=O)NCC(=O)N[C@@H](CCCCN)C(=O)N[C@@H](CCCCN)C(=O)N[C@@H](CCCCN)C(=O)N[C@@H](CC(C)C)C(=O)N[C@@H](CCCCN)C(=O)N[C@@H](CCCCN)C(=O)N[C@@H](CS)C(=O)O` the inhibition was 0.975 fraction (0-1) (growth; ATCC 10231, potato dextrose broth; 128 µM, 30 °C).
Under “chitin level (calcofluor fluorescence)”, `CCCCCCCCCCCC(=O)C(C)C(=O)N1CCC[C@H]1C(=O)NC(C)(C)C(=O)NC(C)(C)C(=O)NC(C)(C)C(=O)N[C@](C)(CC)C(=O)NCCC(=O)N[C@@H](C)C(=O)N[C@](C)(CC)C(=O)N[C@@H](C)C(=O)N[C@@H](CC(C)C)C(=O)N[C@](C)(CC)C(=O)NCCC(=O)N[C@@H](C)C(=O)N[C@](C)(CC)C(=O)NCCC(=O)N[C@@H](C)C(=O)NC(C)(C)C(=O)NC(C)(C)C(=O)NC(C)(C)C(=O)N[C@@H](C)C(=O)N[C@@H](CC(=O)O)C(=O)O` (stereo partly drawn) is recorded as 0.0333 a.u. (calcofluor white microscopy; ATCC 90028; half MIC, 4 h, 30 °C, YPD medium; baseline: DMSO vehicle, higher = more chitin).
With `CC(C)[C@H]1NC(=O)[C@H](Cc2ccccc2)NC(=O)[C@@H](C(C)C)NC(=O)[C@@H](C)NC(=O)[C@H](CO)NC(=O)[C@@H](Cc2c(-c3ccc(-c4ccccc4)cc3)[nH]c3ccccc23)NC(=O)[C@@H](CO)NC1=O` the MIC90 was > 50 µM (broth dilution).
With `CCCCCCCC(=O)NCCCC[C@H](NC(=O)CCCCCCC)C(=O)N[C@@H](CCCCNC(=O)CCCCCCC)C(=O)NCC(=O)NCC(=O)NCC(=O)N[C@@H](CS)C(=O)N[C@@H](CCCNC(=N)N)C(=O)N[C@@H](CCCCN)C(=O)N1CCC[C@H]1C(=O)N[C@@H](CS)C(=O)N[C@@H](CCCNC(=N)N)C(=O)N[C@@H](CCCCN)C(=O)N1CCC[C@H]1C(N)=O` the MIC was 8 µM (broth microdilution; 58288, RPMI-1640; 48 h, 30 °C).
`CCC(=O)c1ccc(OCC(O)CN2CCN(C(c3ccccc3)c3ccccc3)CC2)cc1` (stereo not drawn) gave an MIC of 8 µg/mL (DSY654 (Cdr efflux pump knockout); 24 h, 35 °C).
For `CC(C)[C@H]1NC(=O)[C@H](Cc2ccccc2)NC(=O)[C@@H](C(C)C)NC(=O)[C@@H](C)NC(=O)[C@H](CO)NC(=O)[C@@H](Cc2c(-c3ccc(-c4ccccc4)c(F)c3)[nH]c3ccccc23)NC(=O)[C@@H](CO)NC1=O`, the MIC90 was > 50 µM (broth dilution).
The MIC of `CCCCCCCCCCCC(=O)NCCCC[C@H](NC(=O)CCCCCCCCCCC)C(=O)N[C@@H](CCCCNC(=O)CCCCCCCCCCC)C(=O)NCC(=O)NCC(=O)NCC(=O)N[C@@H](CS)C(=O)N[C@@H](CCCNC(=N)N)C(=O)N[C@@H](CCCCN)C(=O)N1CCC[C@H]1C(=O)N[C@@H](CS)C(=O)N[C@@H](CCCNC(=N)N)C(=O)N[C@@H](CCCCN)C(=O)N1CCC[C@H]1C(N)=O` is reported as > 128 µM (broth microdilution; SP 3876, RPMI-1640; 48 h, 30 °C).
